Measured values collected from several papers.
A part holds a random share of what one study measured.
Sequence of UniProt P42336 (whole entry, unmodified, looked up): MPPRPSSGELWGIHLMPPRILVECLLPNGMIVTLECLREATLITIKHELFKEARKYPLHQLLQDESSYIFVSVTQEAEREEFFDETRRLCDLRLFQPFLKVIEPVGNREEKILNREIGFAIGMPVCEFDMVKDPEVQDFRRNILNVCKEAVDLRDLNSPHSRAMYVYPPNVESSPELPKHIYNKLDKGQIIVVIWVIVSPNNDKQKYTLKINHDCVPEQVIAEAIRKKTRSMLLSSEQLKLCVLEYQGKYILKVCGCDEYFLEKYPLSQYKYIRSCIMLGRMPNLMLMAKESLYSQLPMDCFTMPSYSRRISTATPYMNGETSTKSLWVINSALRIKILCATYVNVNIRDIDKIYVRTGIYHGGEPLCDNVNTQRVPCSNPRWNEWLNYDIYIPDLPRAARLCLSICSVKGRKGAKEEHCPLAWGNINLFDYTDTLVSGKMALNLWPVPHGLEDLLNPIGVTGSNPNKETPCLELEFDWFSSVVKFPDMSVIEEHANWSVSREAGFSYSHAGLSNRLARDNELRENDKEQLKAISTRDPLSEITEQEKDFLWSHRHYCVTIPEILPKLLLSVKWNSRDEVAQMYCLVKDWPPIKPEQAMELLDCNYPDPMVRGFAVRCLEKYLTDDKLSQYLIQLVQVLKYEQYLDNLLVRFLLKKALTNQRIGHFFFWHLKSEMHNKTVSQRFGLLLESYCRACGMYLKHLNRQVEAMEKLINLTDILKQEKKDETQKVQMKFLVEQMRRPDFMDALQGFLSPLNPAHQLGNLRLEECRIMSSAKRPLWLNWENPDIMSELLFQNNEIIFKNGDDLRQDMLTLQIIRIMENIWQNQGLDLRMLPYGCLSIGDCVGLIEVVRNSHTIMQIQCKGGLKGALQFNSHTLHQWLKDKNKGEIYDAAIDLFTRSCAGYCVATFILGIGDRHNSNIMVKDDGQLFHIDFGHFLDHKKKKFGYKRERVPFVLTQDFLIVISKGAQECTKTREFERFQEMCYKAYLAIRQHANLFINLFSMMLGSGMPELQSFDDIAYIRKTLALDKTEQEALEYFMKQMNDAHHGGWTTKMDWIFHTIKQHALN
Sequence of UniProt P32298 (whole entry, looked up): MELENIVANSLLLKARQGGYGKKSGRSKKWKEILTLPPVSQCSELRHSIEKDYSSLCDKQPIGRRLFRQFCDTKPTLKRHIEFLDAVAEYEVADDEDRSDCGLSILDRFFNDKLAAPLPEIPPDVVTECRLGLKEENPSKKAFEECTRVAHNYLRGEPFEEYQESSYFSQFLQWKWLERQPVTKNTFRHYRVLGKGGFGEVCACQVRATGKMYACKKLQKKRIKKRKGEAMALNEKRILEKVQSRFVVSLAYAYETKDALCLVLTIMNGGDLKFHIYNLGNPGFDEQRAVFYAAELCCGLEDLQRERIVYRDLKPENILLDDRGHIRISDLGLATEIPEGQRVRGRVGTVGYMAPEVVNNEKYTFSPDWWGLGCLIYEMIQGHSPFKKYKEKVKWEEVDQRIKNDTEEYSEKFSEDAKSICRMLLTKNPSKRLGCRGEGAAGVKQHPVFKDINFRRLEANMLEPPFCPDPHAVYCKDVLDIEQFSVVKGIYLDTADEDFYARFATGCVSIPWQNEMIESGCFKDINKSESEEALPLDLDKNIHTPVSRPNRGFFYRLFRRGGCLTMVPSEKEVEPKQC
Sequence of UniProt Q9H2X6 (whole entry, looked up): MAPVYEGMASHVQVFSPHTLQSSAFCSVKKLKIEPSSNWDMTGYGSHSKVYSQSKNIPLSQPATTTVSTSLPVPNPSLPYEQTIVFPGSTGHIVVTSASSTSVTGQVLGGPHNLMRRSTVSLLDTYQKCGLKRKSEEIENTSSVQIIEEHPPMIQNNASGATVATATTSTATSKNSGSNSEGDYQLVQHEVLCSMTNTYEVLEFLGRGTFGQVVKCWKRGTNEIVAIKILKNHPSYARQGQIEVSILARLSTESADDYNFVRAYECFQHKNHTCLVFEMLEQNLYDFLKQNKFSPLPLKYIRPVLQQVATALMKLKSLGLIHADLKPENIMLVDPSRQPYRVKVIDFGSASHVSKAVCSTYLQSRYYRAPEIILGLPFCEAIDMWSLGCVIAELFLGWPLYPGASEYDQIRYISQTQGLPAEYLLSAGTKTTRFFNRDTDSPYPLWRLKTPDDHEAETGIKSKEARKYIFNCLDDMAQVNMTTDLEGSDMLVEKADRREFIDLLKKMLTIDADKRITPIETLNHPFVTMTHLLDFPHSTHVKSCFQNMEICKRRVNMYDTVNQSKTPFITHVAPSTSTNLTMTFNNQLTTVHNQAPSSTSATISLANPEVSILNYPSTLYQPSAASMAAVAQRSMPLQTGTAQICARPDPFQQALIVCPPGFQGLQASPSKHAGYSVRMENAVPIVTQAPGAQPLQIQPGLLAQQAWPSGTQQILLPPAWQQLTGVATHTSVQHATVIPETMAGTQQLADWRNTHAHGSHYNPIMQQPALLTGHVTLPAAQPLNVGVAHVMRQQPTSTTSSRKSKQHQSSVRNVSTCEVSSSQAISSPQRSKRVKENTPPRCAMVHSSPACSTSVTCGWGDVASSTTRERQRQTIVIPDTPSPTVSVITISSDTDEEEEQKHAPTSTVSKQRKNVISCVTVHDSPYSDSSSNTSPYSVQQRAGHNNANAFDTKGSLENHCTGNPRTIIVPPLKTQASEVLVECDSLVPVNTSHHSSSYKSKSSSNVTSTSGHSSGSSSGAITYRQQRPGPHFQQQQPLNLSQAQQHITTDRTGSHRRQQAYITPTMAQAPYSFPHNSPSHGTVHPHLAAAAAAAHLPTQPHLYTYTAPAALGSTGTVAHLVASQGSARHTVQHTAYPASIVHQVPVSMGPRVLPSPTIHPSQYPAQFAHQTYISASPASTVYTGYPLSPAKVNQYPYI
Sequence of UniProt P28482 (whole entry, looked up): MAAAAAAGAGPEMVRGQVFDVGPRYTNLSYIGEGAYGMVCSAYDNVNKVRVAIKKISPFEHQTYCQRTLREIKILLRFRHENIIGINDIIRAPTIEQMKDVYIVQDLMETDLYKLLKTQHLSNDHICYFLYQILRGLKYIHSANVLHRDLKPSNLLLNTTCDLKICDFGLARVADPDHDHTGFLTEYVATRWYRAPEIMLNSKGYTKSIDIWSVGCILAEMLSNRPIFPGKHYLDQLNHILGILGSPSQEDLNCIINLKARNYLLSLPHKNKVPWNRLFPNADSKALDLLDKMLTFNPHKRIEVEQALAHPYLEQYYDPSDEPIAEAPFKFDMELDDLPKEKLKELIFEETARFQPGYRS
Sequence of UniProt Q9NYY3 (whole entry, looked up): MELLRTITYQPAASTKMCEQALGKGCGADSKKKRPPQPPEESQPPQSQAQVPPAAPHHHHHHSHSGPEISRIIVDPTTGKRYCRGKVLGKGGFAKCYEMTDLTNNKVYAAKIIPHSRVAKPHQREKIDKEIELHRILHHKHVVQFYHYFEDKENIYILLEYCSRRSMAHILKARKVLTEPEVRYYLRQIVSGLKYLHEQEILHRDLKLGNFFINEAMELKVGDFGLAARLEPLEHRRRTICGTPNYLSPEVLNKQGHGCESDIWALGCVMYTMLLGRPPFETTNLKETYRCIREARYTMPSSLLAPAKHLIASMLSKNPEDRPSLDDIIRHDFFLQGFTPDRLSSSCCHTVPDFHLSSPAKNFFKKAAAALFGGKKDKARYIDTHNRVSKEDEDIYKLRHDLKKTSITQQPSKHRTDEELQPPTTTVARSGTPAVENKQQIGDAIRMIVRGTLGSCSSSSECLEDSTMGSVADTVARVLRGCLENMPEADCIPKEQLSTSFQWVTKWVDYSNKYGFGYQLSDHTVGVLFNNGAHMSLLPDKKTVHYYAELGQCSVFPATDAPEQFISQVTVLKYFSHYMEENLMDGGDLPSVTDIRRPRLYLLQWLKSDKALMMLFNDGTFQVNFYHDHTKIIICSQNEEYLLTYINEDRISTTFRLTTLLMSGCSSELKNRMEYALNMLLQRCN
Sequence of UniProt Q00532 (whole entry, looked up): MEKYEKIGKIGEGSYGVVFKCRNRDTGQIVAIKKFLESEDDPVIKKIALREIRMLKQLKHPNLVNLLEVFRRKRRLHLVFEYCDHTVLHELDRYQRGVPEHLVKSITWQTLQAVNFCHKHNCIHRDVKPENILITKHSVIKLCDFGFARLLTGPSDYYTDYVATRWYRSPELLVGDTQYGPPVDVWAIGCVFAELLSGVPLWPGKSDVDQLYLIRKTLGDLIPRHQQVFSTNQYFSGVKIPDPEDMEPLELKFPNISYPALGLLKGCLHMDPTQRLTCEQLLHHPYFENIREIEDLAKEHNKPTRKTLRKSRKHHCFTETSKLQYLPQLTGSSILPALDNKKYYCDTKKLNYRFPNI

Block 1 — cell line: A-375; tested at: 100 µM; time: 18 h
SMILES | viability [%]
Oc1cc(O)cc(/C=C/c2ccc(O)c(O)c2)c1 | 81.2
C[C@]12C=CC(=O)C=C1CC[C@@H]1[C@@H]2C(=O)C[C@@]2(C)[C@H]1CC[C@]2(O)C(=O)CO | 103
CCOC(=O)C1=C(C)NC(C)=C(C(=O)OC)C1c1cccc([N+](=O)[O-])c1 (stereo not drawn) | 19.1
COC1=CC(=O)C[C@@H](C)[C@]12Oc1c(Cl)c(OC)cc(OC)c1C2=O | 80.5
CCOc1cc(CC(=O)N[C@@H](CC(C)C)c2ccccc2N2CCCCC2)ccc1C(=O)O | 73.8
CC(C)COc1ccc(CNC(=O)N(Cc2ccc(F)cc2)C2CCN(C)CC2)cc1 | 7.89
Clc1cccc(Cl)c1N=C1NCCN1 | 104
Cc1cc2nc3c(=O)[nH]c(=O)nc-3n(C[C@H](O)[C@H](O)[C@H](O)COP(=O)(O)O)c2cc1C | 139
Nc1c(CC(=O)O)cccc1C(=O)c1ccc(Br)cc1 | 98

Block 2 — effect on: enzyme activity; mode: inhibitor; tested at: 10 µM
Target: Calcium/calmodulin-dependent protein kinase type II subunit alpha (CAMK2A, Homo sapiens, UniProt Q9UQM7)
Sequence of UniProt Q9UQM7 (whole entry, looked up): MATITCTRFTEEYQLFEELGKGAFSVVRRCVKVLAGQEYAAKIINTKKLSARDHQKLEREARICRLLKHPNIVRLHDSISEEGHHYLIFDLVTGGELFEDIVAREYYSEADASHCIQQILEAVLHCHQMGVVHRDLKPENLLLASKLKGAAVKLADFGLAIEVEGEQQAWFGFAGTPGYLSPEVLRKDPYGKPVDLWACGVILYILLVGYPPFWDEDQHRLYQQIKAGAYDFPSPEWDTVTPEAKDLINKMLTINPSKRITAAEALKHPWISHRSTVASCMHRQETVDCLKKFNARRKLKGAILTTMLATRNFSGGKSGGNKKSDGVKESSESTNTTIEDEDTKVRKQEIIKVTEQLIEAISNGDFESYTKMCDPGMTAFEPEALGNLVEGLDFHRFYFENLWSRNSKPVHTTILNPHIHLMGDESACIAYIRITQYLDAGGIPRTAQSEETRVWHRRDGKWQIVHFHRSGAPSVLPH
Structure (SMILES) | inhibition [%]
COc1cccc2c1C(=O)c1c(O)c3c(c(O)c1C2=O)C[C@@](O)(C(=O)CO)C[C@@H]3O[C@H]1C[C@H](N)[C@H](O)[C@H](C)O1 | -5
Cc1cc(C)nc(NS(=O)(=O)c2ccc(N)cc2)n1 | -3
CC(=O)N(O)CCCCCNC(=O)CCC(=O)N(O)CCCCCNC(=O)CCC(=O)N(O)CCCCCN | -14
c1ccc2[nH]c(-c3cscn3)nc2c1 | -6
CCC/C=C1\OC(=O)C2=C1CCC=C2 | -35
NC(CCC(=O)O)C(=O)O (racemic) | 1
CCOC(=O)[C@H](CCc1ccccc1)N[C@H]1CCc2ccccc2N(CC(=O)O)C1=O | -1
CCCCCCCC/C=C\CCCCCCCC(=O)OCC(COC(=O)CCCCCCC/C=C\CCCCCCCC)OC(=O)CCCCCCCCCCCCCCC | 1
CCNC(=O)[C@@H]1CCCN1C(=O)[C@H](CCCN=C(N)N)NC(=O)[C@H](CC(C)C)NC(=O)[C@@H](C)NC(=O)[C@H](Cc1ccc(O)cc1)NC(=O)[C@H](CO)NC(=O)[C@H](Cc1c[nH]c2ccccc12)NC(=O)[C@H](Cc1cnc[nH]1)NC(=O)C1CCC(=O)N1 (stereo partly drawn) | -8

Block 3 — effect on: cell-free assay; method: competition with immobilised ligand; tested at: 1 µM
SMILES: CCOCCn1cc(C(=O)Nc2ccc(-n3nc(-c4cccnc4)cc3C(F)(F)F)cn2)ccc1=O
target | remaining binding
Ribosomal protein S6 kinase alpha-2, C-terminal kinase domain (RPS6KA2, Homo sapiens, UniProt Q15349) | 89%
Cyclin-dependent kinase-like 1 (CDKL1, Homo sapiens, UniProt Q00532) | 80%
Serine/threonine-protein kinase PLK2 (PLK2, Homo sapiens, UniProt Q9NYY3) | 88%
Tyrosine-protein kinase ABL1, non-phosphorylated (ABL1, Homo sapiens, UniProt P00519, H396P) | 100%
Dual specificity mitogen-activated protein kinase kinase 2 (MAP2K2, Homo sapiens, UniProt P36507) | 94%
Myosin light chain kinase, smooth muscle (MYLK, Homo sapiens, UniProt Q15746) | 73%
Casein kinase I isoform alpha (CSNK1A1, Homo sapiens, UniProt P48729) | 74%
Epidermal growth factor receptor (EGFR, Homo sapiens, UniProt P00533, L861Q) | 100%
Homeodomain-interacting protein kinase 2 (HIPK2, Homo sapiens, UniProt Q9H2X6) | 100%
TRAF2 and NCK-interacting protein kinase (TNIK, Homo sapiens, UniProt Q9UKE5) | 100%
Mast/stem cell growth factor receptor Kit (KIT, Homo sapiens, UniProt P10721, D816V) | 92%
Phosphatidylinositol 4,5-bisphosphate 3-kinase catalytic subunit alpha isoform (PIK3CA, Homo sapiens, UniProt P42336, H1047Y) | 100%
Receptor tyrosine-protein kinase erbB-3 (ERBB3, Homo sapiens, UniProt P21860) | 87%
Ephrin type-B receptor 1 (EPHB1, Homo sapiens, UniProt P54762) | 100%

Block 4 — effect on: enzyme activity; mode: inhibitor; tested at: 0.5 µM; baseline: control
SMILES: O=Nc1c(-c2c(O)[nH]c3ccccc23)[nH]c2ccccc12
target | remaining activity [%]
Misshapen-like kinase 1 (MINK1, Homo sapiens, UniProt Q8N4C8) | 50.2
Mitogen-activated protein kinase 1 (MAPK1, Homo sapiens, UniProt P28482) | 96.6
Ribosomal protein S6 kinase alpha-4 (RPS6KA4, Homo sapiens, UniProt O75676) | 58.7
Mitogen-activated protein kinase 14 (MAPK14, Homo sapiens, UniProt Q16539) | 97.2
Vascular endothelial growth factor receptor 2 (KDR, Homo sapiens, UniProt P35968) | 72.9
Dual specificity protein kinase CLK4 (CLK4, Homo sapiens, UniProt Q9HAZ1) | 59.2
Serine/threonine-protein kinase DCLK2 (DCLK2, Homo sapiens, UniProt Q8N568) | 88.5
MAP/microtubule affinity-regulating kinase 4 (MARK4, Homo sapiens, UniProt Q96L34) | 56.2
Serine/threonine-protein kinase Nek3 (NEK3, Homo sapiens, UniProt P51956) | 102
Cyclin-dependent kinase 9, with cyclin K (CDK9, Homo sapiens, UniProt P50750) | 59.7
G protein-coupled receptor kinase 4 (GRK4, Homo sapiens, UniProt P32298) | 98.3
Hepatocyte growth factor receptor (MET, Homo sapiens, UniProt P08581) | 110
Tyrosine-protein kinase TXK (TXK, Homo sapiens, UniProt P42681) | 66.7

A few entries again (block 2):
Structure (SMILES) | inhibition [%]
CC(=O)N(O)CCCCCNC(=O)CCC(=O)N(O)CCCCCNC(=O)CCC(=O)N(O)CCCCCN | -14
c1ccc2[nH]c(-c3cscn3)nc2c1 | -6
CCC/C=C1\OC(=O)C2=C1CCC=C2 | -35
NC(CCC(=O)O)C(=O)O (racemic) | 1
